Earlier results that unrelated publications cite.
Protocols differ between the studies behind these lines. Numbers after ± are the reported error.

Compound	target or system	test	system	setting	how to read	measurement	value
CNC(=O)c1cc(Oc2ccc(NC(=O)Nc3ccc(Cl)c(C(F)(F)F)c3)cc2)ccn1	hiPSC-derived cardiomyocytes	contractility		concentration not given, 72 h, at effective concentration	reference: baseline	log2 fold change	1.03
CC12CCC3c4ccc(O)cc4CCC3C1CCC2O (stereo not shown)	HT-22	cell protection		together with: glutamate 10 mM		EC50	10.2 µM
O=C(O)CNC(=O)c1ccccc1[131I]			normal rat, urine	60 min, together with: co-injected 99mTc-1		percent injected dose	91.1 ± 3.7 %ID
O=C1c2ccccc2-c2c1c1ccc([N+](=O)[O-])cc1c(=O)n2CCCn1ccnc1	lung HOP-62	cell growth				GI50	190 nM
Cc1ccc(Nc2nccc(N(C)c3ccc4c(C)n(C)nc4c3)n2)cc1S(N)(=O)=O	hiPSC-derived cardiomyocytes	contractility		concentration not given, 72 h, at effective concentration	reference: baseline	log2 fold change	1.19
Cc1ccccc1-c1cc(N2CCN(C)CC2)ncc1N(C)C(=O)C(C)(C)c1cc(C(F)(F)F)cc(C(F)(F)F)c1			patients, plasma	oral, dose not given, netupitant-palonosetron combination, together with: etoposide 35 to 100 mg/m^2 IV		CL/F	20.8 L/h
O=c1c2nc(Br)n([C@@H]3O[C@@H]4COP(=O)(O)O[C@H]4[C@H]3O)c2nc2[nH]c(-c3ccccc3)cn12	PDE6	cyclic nucleotide hydrolysis, substrate or inhibitor, isothermal titration calorimetry				Km or Ki	11.2 µM
O=C1c2ccccc2-c2c1c1ccc([N+](=O)[O-])cc1c(=O)n2C[C@H](O)CO	lung HOP-62	cell growth				GI50	89 nM
CO[C@@H]1[C@@H]2OP(=O)(O)OC[C@H]2O[C@H]1n1c(Sc2ccc(Cl)cc2)nc2c(N)ncnc21	PDE5	cyclic nucleotide hydrolysis, substrate or inhibitor, isothermal titration calorimetry				Km or Ki	3.12 µM
O=C1c2cccc3c2[C@H](CCC3)CN1[C@@H]1CN2CCC1CC2			patients, plasma	oral, dose not given, netupitant-palonosetron combination, together with: etoposide 35 to 100 mg/m^2 IV		CL/F	10.8 L/h
CN[C@H]1C(=O)N[C@@H]2Cc3ccc(cc3)Oc3cc4cc(c3O[C@@H]3O[C@H](C(=O)O)[C@@H](O)[C@H](O)[C@H]3NC(=O)CCCCCCCCC(C)C)Oc3ccc(cc3Cl)[C@@H](O)[C@@H]3NC(=O)[C@H](NC(=O)[C@@H]4NC(=O)[C@@H](NC2=O)c2cc(cc(O)c2Cl)Oc2cc1ccc2O)c1ccc(O)c(c1)-c1c(O[C@H]2O[C@H](CO)[C@@H](O)[C@H](O)[C@@H]2O)cc(O)cc1[C@@H](C(=O)NCCCN(C)C)NC3=O	Staphylococcus aureus		plasma	concentration not given, once-weekly dosing		time above bactericidal concentration	7 to 14 days
O=C1c2ccccc2-c2c1c1ccc([N+](=O)[O-])cc1c(=O)n2CCCN1CCOCC1	colon HCT-116	cell growth				GI50	38 nM
CC(C)(C)c1nc(-c2cccc(NS(=O)(=O)c3c(F)cccc3F)c2F)c(-c2ccnc(N)n2)s1	hiPSC-derived cardiomyocytes			72 h, tested 0 to 100 µM		beating cessation concentration	100 µM
